Results collected from several papers.
Compare with care: the assays were run in different laboratories. Values joined by “and” are separate records of one study, mostly repeats; a detail may differ. Numbers after ± are the reported error.

SMILES | test | test system | conditions | how to read | endpoint | value
CO[C@H]1C[C@@H]2CC[C@@H](C)[C@@](O)(O2)C(=O)C(=O)N2CCCC[C@H]2C(=O)O[C@H]([C@H](C)C[C@@H]2CC[C@@H](OC(=O)NCCOCCOCCOCCOCCOCCOCCOCCOCCC(=O)N3CCc4cc(Cn5nc(-c6ccc7oc(N)nc7c6)c6c(N)ncnc65)ccc4C3)[C@H](OC)C2)C[C@@H](O)[C@H](C)/C=C(\C)[C@@H](O)[C@@H](OC)C(=O)[C@H](C)C[C@H](C)/C=C/C=C/C=C/1C | – | human patients, plasma | intravenous, 10 mg, cycle 1 day 1, 2 h infusion | – | half-life | 13.6 h
Cn1cc(Nc2nccc(-c3ccc4c(c3)CN(C3COC3)CC[C@H]4NC(=O)c3cn(C(C)(C)C)nn3)n2)cn1 | – | human, whole blood | 300 mg twice daily, day 14 | relative to: pre-dose baseline | plasmablast count change | -19.9%
O=C(Nc1nc2cccc(-c3ccc(CN4CCS(=O)(=O)CC4)cc3)n2n1)C1CC1 | refers to: hypotension | human rheumatoid arthritis patients | oral, 75 mg once daily, 4 weeks, regardless of relatedness | – | treatment-emergent adverse events | 0%
Cn1cc(-c2cn3nccc3c(-c3cnn([C@]4(CC#N)C[C@@H](C#N)C4)c3)n2)cn1 | – | healthy humans fasted, plasma | 400 mg single dose, geometric mean | – | apparent clearance CL/F | 131 L/h
Cc1cc(Nc2ncnc3ccc(NC4=NC(C)(C)CO4)cc23)ccc1Oc1ccn2ncnc2c1 | – | human, plasma | oral, 300 mg, day 1, single dose alone | – | CL/F, mean | 173 L/h
C=CC(=O)N1CCC(c2ccc(C(N)=O)c(-c3ccc(Oc4ccccc4)cc3)n2)CC1 | – | relapsed/refractory mantle cell lymphoma patients | oral, dose not given, part, all doses, CTCAE v4.03 | – | number of TEAEs | 45
Cl.[2H]C([2H])([2H])CC(=O)c1cnc(NC(=O)C2CC2)cc1Nc1cccc(-c2ncn(C([2H])([2H])[2H])n2)c1OC | geometric mean | human | oral, 40 mg twice daily, day 7, fed, liquid, multiple dose | – | elimination rate constant | 2.28e-05 s⁻¹
NC(=O)N1c2ccccc2C=Cc2ccccc21 | – | healthy human subjects | oral, dose not given, compound alone | – | headache incidence | 27%
COc1ccnc(C(=O)N[C@@H](CO)C(=O)O)c1OCOC(=O)C(C)C | – | Staffordshire loam sediment, aerobic dark | 20 °C | – | DT50 water | 1.98 days
CCC(=O)N(CCC(c1ccc2c(c1)OCO2)c1ccccc1OC)Cc1ccccc1 (stereo not shown) | – | mouse, blood | i.p., 60 mg/kg twice daily, 2 weeks | – | Na/K ratio | 36.8
CN1CCC[C@H](CN2c3ccccc3Sc3ccccc32)C1.Cl | – | fasted female ICR mouse, eye | oral, 16 mg/kg | – | Cmax | 239 ng/g
CN(C(=O)n1cnc(-c2cccnc2)c1)[C@H]1CC[C@H](O)CC1 | – | Wistar rat, midbrain | oral, 10 mg/kg of BIA 10-2474, 4 h, single dose | – | concentration | 35.5 ± 8.6 ng/g
COc1ccc2nc(-c3cc(N(C)C)ccn3)c(N(C)c3ccc(F)cc3)n2c1 | – | peritoneal macrophages, Swiss mice | 5 days, 5% fetal calf serum | – | CC50 | 3.98 µM
CCO[C@H]1CCN(Cc2c(OC)cc(C)c3[nH]ccc23)[C@H](c2ccc(C(=O)O)cc2)C1 | – | human moderate hepatic impairment, plasma | oral, 200 mg single dose, geometric mean | – | total AUC(0-inf) | 53000 ng·h/mL
CN(C)C(=N)N=C(N)N | refers to: vessel puncture site pain | healthy men | oral, dose not given, 8 days, treatment-emergent, crossover trial | – | subjects with adverse event | 0%
Cc1cc(NC2CCN(C(=O)OC3CCN(C(=O)/C=C/CN(C)C)C3)CC2)n2ncc(C(C)C)c2n1 (stereo not shown) | Phase I dose escalation CTCAE v4.0, refers to: maculo-papular rash | patients with advanced solid tumours | dose not given, Total dosing grade 3 or higher | – | patients with adverse event | 0%
OC[C@H]1O[C@@H](c2ccc(F)c(Cc3cc4ccccc4s3)c2)[C@H](O)[C@@H](O)[C@@H]1O | – | Japanese type 2 diabetes patients, plasma | oral, 25 mg/day, day 14 | – | renal clearance | 1.82 ± 0.328 mL/min
Cc1cc(C)c(CNC(=O)c2cc(Cl)c3c(c2C)O[C@@](C)([C@H]2CC[C@H](N(C)C)CC2)O3)c(=O)[nH]1 | refers to: total radioactivity | human, fasted, feces | oral, 200 mg [14C] single dose, 0 to 360 h | relative to: dose | cumulative excretion | 79.8%
OB1NN=Cc2ccccc21 | stability, UPLC-MS | diluted serum | 3 day, 37 °C | higher = more compound remaining | peak area | 305000 a.u. and 309000 a.u. and 310000 a.u.
CCCCCN(C)CCC(O)(P(=O)(O)O)P(=O)(O)OP(=O)(O)OC[C@H]1O[C@@H](n2ccc(N)nc2=O)C(F)(F)[C@@H]1O (stereo partly shown) | – | HEPES buffer | pH 6.2, 37 °C | – | hydrolysis rate constant | 0.109 h⁻¹
CNC(=O)c1ccc(-c2cnc3ncc(Cc4ccc5ncccc5c4)n3n2)cc1F | – | healthy human subjects | oral, 200 mg, Nausea, all grades, all causality, together with: itraconazole 200 mg/day | – | subjects with adverse event | 11.1%
FC(F)(F)c1ccc(CNc2ccc(Cc3c[nH]c4ncc(Cl)cc34)cn2)cn1 | refers to: Dysgeusia | patients with advanced solid tumours, all cohorts | oral, 1000 mg/day, any grade | – | treatment-related adverse events | 22%
CC(C)(C(=O)N1CCOc2c(C#N)cncc2C1)C(F)F | refers to: eye disorders | human | oral, 15 mg twice daily, 14 days, multiple ascending dose | – | subjects with adverse event | 0%
COc1ccc([C@@H](O)c2cc(-c3ncnc4cc(N5CCOCC5)ccc34)c(F)cc2Cl)nn1 | geometric mean | healthy volunteers, urine | oral, 100 mg, fasted oral suspension | – | renal clearance | 2.03 mL/min
C=CCn1c(=O)c2cnc(Nc3ccc(N4CCN(C)CC4)cc3)nc2n1-c1ccc2c(n1)[C@@](O)(CC)CC2 | – | A-427, female NOD/SCID mouse xenograft, plasma | oral, 40 mg/kg once daily | – | Cmax | 2000 ng/mL
C=CCN1CC(=O)N2[C@@H](Cc3ccc(O)cc3F)C(=O)N(Cc3cccc(N4CC(N5CCN(CC)CC5)C4)n3)C[C@@H]2N1C(=O)NCc1ccccc1 | – | advanced solid tumour patients | oral, 30 mg twice daily, grade ≥3, dose-escalation | – | any treatment-related adverse event | 0%
N#Cc1ccc2c(c1)[C@H]1CCCN(C(=O)c3ccc4[nH]cnc4c3)[C@H]1C2 | – | human females | 80 mg, day 15 | – | SHBG level | 54.2 nmol/L
CNC(=O)c1ccc(-c2cnc3ncc(Cc4ccc5ncccc5c4)n3n2)cc1F | refers to: Fatigue | cancer patients | oral, 600 mg twice daily, all expansion cohorts, grade 3-4 | – | patients with adverse event | 8%

SMILES | test | test system | conditions | how to read | endpoint | value
CCOc1c([C@H](C)n2nc(C)c3c(N)ncnc32)cc(Cl)c(F)c1[C@@H]1CNC(=O)C1 | refers to: QTcF change above 60 ms | previously treated B-cell malignancy | oral, 5 mg once daily, baseline QTcF ≤450 ms | relative to: baseline | ECG observations | 0%
OC[C@H]1O[C@@H](c2ccc(Cl)c(Cc3ccc(O[C@H]4CCOC4)cc3)c2)[C@H](O)[C@@H](O)[C@@H]1O | – | Japanese type 1 diabetes patients, blood | 10 mg, day 28 | relative to: baseline | change in uric acid | -0.42 µmol/L
COc1cccc(-c2n[nH]c(SCc3ccccn3)n2)c1OC | – | Sprague-Dawley rats, both sexes | oral dietary, 30 mg/kg/day, day 90, 12 h | – | plasma concentration | 2860 ng/mL
NC1(C(=O)N[C@@H](CCO)c2ccc(Cl)cc2)CCN(c2nc[nH]c3nccc2-3)CC1 | – | metastatic CRPC patients | 320 mg b.i.d., any grade, treatment-related, together with: enzalutamide 160 mg daily | – | incidence of Diarrhoea | 100%
Nc1ncnc2c1ncn2[C@H]1C[C@@H]2OP(=O)(O)OC[C@H]3O[C@@H](n4cnc5c(N)ncnc54)C[C@@H]3OP(=O)(O)OC[C@H]2O1 | – | non-tumor-bearing mice, serum | intravenous, 1 mg/kg, toxicity study | – | total bile acids | 5.92 ± 1.85 µmol/L
CNCc1ccc(-c2[nH]c3cc(F)cc4c3c2CCNC4=O)cc1 | – | patients | oral, 840 mg twice daily, all grades | – | any adverse event incidence | 100%
CCc1cc(C(=O)NC)c2nccc(N3CCc4c(cc(Cn5ccnc5)cc4-c4cn(C)nc4C(F)(F)F)C3=O)c2c1 | – | Sprague Dawley rat | oral, 100 mg/kg once daily, day 3, 7-day toxicology study | relative to: day 1 | body weight change | 5.2%
CC(C)C(=O)O[C@H]1[C@H](C)OC(=O)[C@@H]1Cc1ccccc1 | – | Swiss Lake sand sediment, aerobic dark | 20 °C | – | DT50 whole system | 0.89 days
Cc1ccc2c(c1)C(=O)[C@]1(O)CCN(c3ccc4nc(C)ccc4c3)C1=N2.Cl | – | mouse | subcutaneous, 5 mg/kg, 10 min (brain Tmax) | relative to: brain over plasma | tissue/plasma ratio | 2
CCN1/C(=C/C(C)=O)Sc2ccc(F)cc21 | – | cynomolgus monkey | oral, 10 mg/kg, 4 h post-dose | – | QT interval | 267 ± 33 ms
O=C(/C=C/c1cccc(S(=O)(=O)Nc2ccccc2)c1)NO | – | human patients, plasma | 1800 mg/m^2 | – | Vss | 30.1 L/m²
COc1ccnc(C(=O)NCC(=O)O)c1O | aerobic dark soil incubation | soil | geometric mean of 4 soils, persistence endpoint | – | DT50 | 12 days
Cc1ccc(O)c(-n2nc3ccccc3n2)c1 | exposure assessment | human, age 3-6 years | concentration not given, spray sunscreen, 95th percentile | – | daily dermal uptake, percentile | 3980 ng/kg body weight/day
Cc1cccc(CNC(=O)c2cn(CCNC(=O)c3ccccc3S)c3cc4c(cc3c2=O)OC(F)(F)O4)n1 | – | Sprague-Dawley rat, male, whole blood | intramuscular, 30 mg/kg of parent drug | – | bioavailability | 21.6 ± 8.4%
O=C(N[C@H](Cc1c[nH]c2ccccc12)C(=O)Nc1ccncc1)c1ccc(-c2ccc(F)c(Cl)c2)cc1F | – | Swiss Webster mouse, female, heart | oral, 50 mg/kg, 2 h, 20% Kolliphor vehicle | – | concentration | 8.5 µM
O=C(O)CCC(=O)O.[2H]C([2H])([2H])Oc1cc(C)c2[nH]ccc2c1CN1CC[C@@H](C2CC2)C[C@H]1c1ccc(C(=O)O)cc1 | – | healthy Chinese subjects | 50 mg, single ascending dose | – | TEAE elevated blood triglycerides | 16.7%
Cc1ccc(Sc2ccccc2N2CCNCC2)c(C)c1 | refers to: eosinophil count increased | healthy adult men | oral, 5 mg daily, 12 days | – | participants with TEAE | 0%
CCO[C@H]1CCN(Cc2c(OC)cc(C)c3[nH]ccc23)[C@H](c2ccc(C(=O)O)cc2)C1 | – | PNH patients, active haemolysis | oral, 100 mg, 8 weeks, treatment | – | incidence impaired fasting glucose | 14.3%
COc1cccc(OC)c1-c1cc(C(=O)NC2(C(=O)O)C3CC4CC(C3)CC2C4)nn1-c1ccc(C(=O)N(C)CCCN(C)CCCN(C)C(=O)CN2CCN(CC(=O)[O-])CCN(CC(=O)[O-])CCN(CC(=O)[O-])CC2)cc1C(C)C.[177Lu+3] (stereo not shown) | – | mouse HT-29 xenograft | 4 h, biodistribution | relative to: tumour over small intestine | tumour-to-small intestine ratio | 6.57
Cc1nc2cccc(OCC(C)(C)C(=O)NC(C)C)c2c(N)c1C(=O)O | – | male Swiss albino CD-1 mouse, bone marrow | oral, 2000 mg/kg, 36 h | – | micronucleated polychromatic erythrocytes | 0.06%
Cc1ccc([C@@H]2O[C@H](CO)[C@@H](O)[C@H](O)[C@H]2O)cc1Cc1ccc(-c2ccc(F)cc2)s1 | – | Japanese type 2 diabetes patients | 100 mg, day 17, 24 h urine collection | relative to: baseline | urinary potassium excretion change | -3.23 mEq
COc1ccc2c(=O)n(C)c(-c3ccccc3)nc2c1 | – | Sprague-Dawley rat, male, large intestine | oral, 30 mg/kg, 0.5 h | relative to: large intestine over plasma | tissue/plasma ratio | 10.2
O=c1c2ccccc2oc2ccccc12 | – | tricaprin-tricaprylin mixture | 60 °C, tricaprin fraction 1.00 | – | solubility | 0.0436 mole fraction
O=C(Nc1cnccc1Cl)N1CCN(Cc2ccc3c(c2)OC(F)(F)O3)CC1 | – | healthy young women, urine | oral, 100 mg once daily, day 10 | – | renal clearance | 0.18 mL/min
CS(=O)(=O)n1cc2c(n1)CN([C@H]1CO[C@H](c3cc(F)ccc3F)[C@@H](N)C1)C2 | – | healthy Japanese men, plasma | oral, 10 mg, fed, single dose | – | AUC(0-168 h) | 8.75 µM·h
C/C(=N\NC(=O)Cn1c(-c2ccc(S(C)(=O)=O)cc2)nc2cc(Cl)ccc21)c1ccc(Cl)cc1 | – | rat, stomach | concentration not given, 4 h | relative to: normal control | ulcer preventive index | 92.3%
C=CC(=O)N1CCC(Oc2cc3c(Nc4ccc(Cl)c(Cl)c4F)ncnc3cc2OC)CC1 | – | Sprague-Dawley rat, male, plasma | oral, 2 mg/kg, 1 weeks pretreatment, together with: Schisandrin A 20 mg/kg daily pretreatment | – | Vz/F | 1.44 ± 0.5 L/kg

Some of these lines once more:
SMILES | test | test system | conditions | how to read | endpoint | value
Cc1cc(Nc2ncnc3ccc(NC4=NC(C)(C)CO4)cc23)ccc1Oc1ccn2ncnc2c1 | – | human, plasma | oral, 300 mg, day 1, single dose alone | – | CL/F, mean | 173 L/h
NC1(C(=O)N[C@@H](CCO)c2ccc(Cl)cc2)CCN(c2nc[nH]c3nccc2-3)CC1 | – | metastatic CRPC patients | 320 mg b.i.d., any grade, treatment-related, together with: enzalutamide 160 mg daily | – | incidence of Diarrhoea | 100%
CCOc1c([C@H](C)n2nc(C)c3c(N)ncnc32)cc(Cl)c(F)c1[C@@H]1CNC(=O)C1 | refers to: QTcF change above 60 ms | previously treated B-cell malignancy | oral, 5 mg once daily, baseline QTcF ≤450 ms | relative to: baseline | ECG observations | 0%
C=CCn1c(=O)c2cnc(Nc3ccc(N4CCN(C)CC4)cc3)nc2n1-c1ccc2c(n1)[C@@](O)(CC)CC2 | – | A-427, female NOD/SCID mouse xenograft, plasma | oral, 40 mg/kg once daily | – | Cmax | 2000 ng/mL
Cc1cc(C)c(CNC(=O)c2cc(Cl)c3c(c2C)O[C@@](C)([C@H]2CC[C@H](N(C)C)CC2)O3)c(=O)[nH]1 | refers to: total radioactivity | human, fasted, feces | oral, 200 mg [14C] single dose, 0 to 360 h | relative to: dose | cumulative excretion | 79.8%
